Results gathered from unrelated publications.
Compare with care: the assays were run in different laboratories. ± marks the error that the study gave.
Cell line: Huh-7

| Compound | test | setting | endpoint | value |
| --- | --- | --- | --- | --- |
| Cc1ccn2c(-c3csc(Nc4ccccn4)n3)c(C)nc2c1 | cell growth or viability, ATP luminescence | 72 h | IC50 | > 10 µM |
| O[Si](CCCN1CCCCC1)(c1ccc(F)cc1)C1CCCCC1 (centres unmarked) | cell growth or viability | 72 h | IC50 | 61 µM |
| CC(C)C(=O)OC[C@H]1O[C@@](C#N)(n2ccc(N)nc2=O)[C@H](O)[C@@H]1O | cell growth or viability |  | CC50 | > 100 µM |
| O=C(N[C@@H](Cc1ccccc1)C(=O)N[C@@H](C[C@@H]1CCNC1=O)C(O)S(=O)(=O)O)OCc1ccccc1 (some centres unmarked) |  | 5 (unit not given) | CC50 | 108 ± 10.4 µM |
| Nc1c2c(nc3sc4c(c13)CCCCC4)CCCC2 | cell growth or viability, ATP luminescence | 72 h | IC50 | > 10 µM |
| Nc1nc(Nc2ccc(Cl)cc2)nn1S(=O)(=O)c1ccc2ccccc2c1 |  |  | CC50 | 6.2 µM |
| CC1CCC(C(C)(C)C(=O)Nc2ccc(Oc3ccccc3)cc2)CC1 (centres unmarked) | cell growth or viability | 72 h | IC50 | 29.2 µM |
| CC(C)CC(NC(=O)OCc1ccccc1)C(=O)NC(CC1CCNC1=O)C(=O)C(=O)NC1CC1 (centres unmarked) |  | 5 (unit not given) | CC50 | > 250 µM |

A few entries again:
| Compound | test | setting | endpoint | value |
| --- | --- | --- | --- | --- |
| Cc1ccn2c(-c3csc(Nc4ccccn4)n3)c(C)nc2c1 | cell growth or viability, ATP luminescence | 72 h | IC50 | > 10 µM |
